Assay results from different studies.
A part holds a random share of what one study measured. Substitutions count along the parent as printed.
Sequence of UniProt Q9UQM7 (whole entry, looked up): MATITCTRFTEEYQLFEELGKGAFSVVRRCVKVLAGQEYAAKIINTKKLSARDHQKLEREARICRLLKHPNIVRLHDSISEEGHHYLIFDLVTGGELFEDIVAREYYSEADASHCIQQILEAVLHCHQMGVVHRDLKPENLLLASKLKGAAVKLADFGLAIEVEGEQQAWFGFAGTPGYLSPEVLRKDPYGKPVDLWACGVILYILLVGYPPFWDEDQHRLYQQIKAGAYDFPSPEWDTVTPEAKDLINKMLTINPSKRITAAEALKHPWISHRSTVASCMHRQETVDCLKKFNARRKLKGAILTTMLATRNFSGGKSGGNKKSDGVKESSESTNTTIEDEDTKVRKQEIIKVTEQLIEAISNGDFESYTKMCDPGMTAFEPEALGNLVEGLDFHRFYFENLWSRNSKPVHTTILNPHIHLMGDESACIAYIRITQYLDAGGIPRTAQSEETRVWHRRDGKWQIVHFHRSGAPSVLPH

Sample 1 — read-out: peptide-MHC binding; molecule type: peptide; tested at: concentration not given
Target: HLA class I histocompatibility antigen, A alpha chain, allele A*80:01 (Homo sapiens, UniProt P04439)
| Sequence | binding |
| --- | --- |
| NAMGADYYA | inactive |
| AVDADDSHF | inactive |
| DSDDWLNKY | inactive |
| CERYGFPAS | inactive |
| ISLWGSLLK | inactive |
| RAMDVYCHR | inactive |
| LMRGVKWLK | inactive |
| KFFMVHSLK | inactive |

Sample 2 — target: CCNB1, cyclin fold, Cln2 fusion (human); method: yeast growth competition, sequencing; sample: yeast; setting: strong parent motif; baseline: not given; direction: higher = stronger binding; parent: viral docking peptide; KGVKRKLFAEDSS
| Substitution | normalised enrichment score |
| --- | --- |
| D11A | 1.25 |
| R5L | 0.872 |
| R5D | 0.227 |
| L7W | -0.331 |
| R5Q | 1.55 |
| K4E | 1.95 |
| A9E | 3.02 |
| V3R | 0.308 |

Single results of other studies
| SMILES | tested on | read-out | action | tested at | time | quantity | result |
| --- | --- | --- | --- | --- | --- | --- | --- |
| N[C@@H](Cc1ccc(N(CCCl)CCCl)cc1)C(=O)O | HaCaT |  |  | 100 µM | 36 h | viability | 43.1% |
| COC1=CC(=O)OC(/C=C/c2ccccc2)C1 (stereo not drawn) | Calcium/calmodulin-dependent protein kinase type II subunit alpha (CAMK2A, Homo sapiens, UniProt Q9UQM7) | enzyme activity | inhibitor | 10 µM |  | inhibition | -11% |

Repeated from above (sample 1):
| Sequence | binding |
| --- | --- |
| ISLWGSLLK | inactive |
